Experimental data of several laboratories.
Each numbered part is a random draw from the data of one study; scales do not carry over between parts. Positions count from the first letter of the parent shown.

Study 1 — technique: RNA Bind-n-Seq; form: RNA; medium: in vitro; tested at: 200 nM; notes: whole 134-nt RNA, ends assumed; with: 150 mM LiCl; baseline: input library; direction: higher = stronger binding; each molecule: 7-deaza-guanosine replaces G
Target: Ras GTPase-activating protein-binding protein 1, full length (G3BP1, Homo sapiens, UniProt Q13283)
Chain of UniProt Q13283 (whole entry, looked up): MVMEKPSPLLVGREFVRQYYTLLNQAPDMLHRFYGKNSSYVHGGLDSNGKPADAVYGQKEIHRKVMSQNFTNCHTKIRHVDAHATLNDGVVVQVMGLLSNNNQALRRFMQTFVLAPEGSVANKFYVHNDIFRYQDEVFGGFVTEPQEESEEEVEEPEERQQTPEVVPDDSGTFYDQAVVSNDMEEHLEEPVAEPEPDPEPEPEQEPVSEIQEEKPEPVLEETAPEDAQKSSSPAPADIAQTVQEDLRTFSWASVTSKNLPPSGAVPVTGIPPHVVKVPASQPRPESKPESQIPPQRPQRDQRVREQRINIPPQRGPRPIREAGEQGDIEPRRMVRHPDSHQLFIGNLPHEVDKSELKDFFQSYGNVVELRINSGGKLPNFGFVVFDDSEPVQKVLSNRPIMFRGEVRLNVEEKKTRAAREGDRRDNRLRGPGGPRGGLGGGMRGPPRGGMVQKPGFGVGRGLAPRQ
Constant ends, left off below: GGGAGUUCUACAGUCCGACGAUC … UGGAAUUCUCGGGUGUCAAGG
Strand	log2 enrichment
GUCCUGUGCUACACAUCGUAUGUACCGAAUCGGGGUUUUUUUGGGGAGGGGUUUGGGGAAAGUAUUAUGUUACGCCGUUCGGAUCUGCAC	-0.0371
CCUGUGCUACACAUCGUAUGUACCGAAUCGGGUUUUUUUGGGUUUUUUUGGGUUUUUGGGAAAGUAUUAUGUUACGCCGUUCGGAUCUGC	0.179
AGUCCUGUGCUACACAUCGUAUGUACCGAAUCGGGUUUUGGGGUUUUGGGUUUUGGGGAAAGUAUUAUGUUACGCCGUUCGGAUCUGCAC	0.581
ACCAUGCAGGUGGGCAUCUUUGGGAAGUGGGGCAAGGGGGGGAUAGGGAGGGGGGUAACCCUUUGGGAACAGGUGGUCCCAGGUCGUUUC	0.176
UCCUGUGCUACACAUCGUAUGUACCGAAUCGGAAAAAAGGAAAAAAGGGGAAAAAAGGGGAAAGUAUUAUGUUACGCCGUUCGGAUCUGC	-0.578
ACCAUGCAGGUGGGCAUCUUUGGGAAGUGGGGCAAGGGCGGGAUAGGGAGGGGGGUAACACUUUGGGAACAGGUGGUCCCAGGUCGUUUC	0.2
UCCUGUGCUACACAUCGUAUGUACCGAAUCGGGGCCCCCCGGGCCCCCCGGGCCCCCCGGAAAGUAUUAUGUUACGCCGUUCGGAUCUGC	-0.664
CCUCAAGUCCUGUGCUACACAUCGUAUGUACCGAAUCGGCCGGCCGGGCCGGGAAAGUAUUAUGUUACGCCGUUCGGAUCUGCACUUCCA	0.66
CACAGACAACACGCAACCACACAGACACAGAGGGAAGGGGUUGGGAUGGGGACAGGGUGCACAGCAGGGCGGGGUAGGACCCCAGCCCCU	0.438
AGAGAAUAAGAAUUCAGCUGACAGGAGGCCUCUAUCCUGUCCCUCCACCCCACCCUCCACCUCAAUCCCCUCCCAUCUUCCCCAGACCUA	0.0744
UGCUGUUAUCUGGAACUCCUACCUGUCCUGGAAGGCACAUCGGCUCUAAGCCUGCCUCACUCCAUCGUUUCCACCUUGCAGUGAUGCAGC	-1.65

Study 2 — target: FOS, bZIP domain (human); technique: DHFR protein complementation; medium: yeast; baseline: wild-type JUN-FOS pair; direction: higher = stronger binding
Notes: single substitutions, most at no-binding floor
Parent: JUN, bZIP domain (human); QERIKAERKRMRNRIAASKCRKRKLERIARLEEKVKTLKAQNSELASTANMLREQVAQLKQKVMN; partner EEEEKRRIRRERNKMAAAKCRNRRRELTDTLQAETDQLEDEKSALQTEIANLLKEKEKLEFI
Variant	binding fitness
E44H	-0.186 natural log
T37M	0.194 natural log
R53T	-0.757 natural log
A29W	-0.268 natural log
V35A	-0.201 natural log
K36N	-0.0186 natural log
A57G	-0.175 natural log
Q41K	-0.237 natural log
K34H	0.00914 natural log
R53H	-0.644 natural log
T48P	-1.22 natural log
E54V	-0.314 natural log
R53Y	-0.831 natural log
V35I	0.139 natural log
L31F	-0.346 natural log
A40V	-0.108 natural log

Study 3 — technique: DHFR PCA, deep sequencing; medium: yeast; with: (+)-ABA 4.8 µM; baseline: wild-type fitted maximum; direction: higher = stronger binding
Target: ABI1, truncated, D143A, DHFR fusion (Arabidopsis thaliana)
Notes: methotrexate growth selection, single substitutions
Parent: PYL1, truncated, DHFR fusion (Arabidopsis thaliana); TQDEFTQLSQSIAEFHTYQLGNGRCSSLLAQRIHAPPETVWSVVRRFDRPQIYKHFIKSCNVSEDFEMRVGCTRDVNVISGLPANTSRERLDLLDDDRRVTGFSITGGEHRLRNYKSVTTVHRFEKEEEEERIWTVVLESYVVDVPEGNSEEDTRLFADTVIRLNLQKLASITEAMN; partner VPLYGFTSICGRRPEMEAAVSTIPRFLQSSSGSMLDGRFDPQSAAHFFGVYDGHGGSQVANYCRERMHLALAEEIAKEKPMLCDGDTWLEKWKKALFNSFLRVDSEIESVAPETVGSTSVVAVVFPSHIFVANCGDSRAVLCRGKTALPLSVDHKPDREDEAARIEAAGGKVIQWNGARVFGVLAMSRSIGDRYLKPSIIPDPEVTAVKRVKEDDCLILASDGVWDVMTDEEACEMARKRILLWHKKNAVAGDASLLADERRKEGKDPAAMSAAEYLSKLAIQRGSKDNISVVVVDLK
Variant	relative binding score [%]
I12S	1.54
E38L	1.98
F5M	79.5
V100M	40.7
V143S	-5.35
V62H	5.67
T135I	-5.71
E67L	48.2
Q51W	22.4
G108F	-1.66
E151D	64.2
E151Y	52.5
T73P	0.0333
R88A	46.8
D97Q	73.8

Study 4 — technique: RNA Bind-n-Seq; form: RNA; medium: in vitro; tested at: not given; notes: RNA with constant flanks, ends assumed; baseline: input RNA pool; direction: higher = stronger binding
Target: RING finger protein unkempt homolog, zinc fingers 1-6, GST-SBP tag (UNK, Homo sapiens, UniProt Q9C0B0, residues 30-357)
Chain of UniProt Q9C0B0 (30-357, looked up): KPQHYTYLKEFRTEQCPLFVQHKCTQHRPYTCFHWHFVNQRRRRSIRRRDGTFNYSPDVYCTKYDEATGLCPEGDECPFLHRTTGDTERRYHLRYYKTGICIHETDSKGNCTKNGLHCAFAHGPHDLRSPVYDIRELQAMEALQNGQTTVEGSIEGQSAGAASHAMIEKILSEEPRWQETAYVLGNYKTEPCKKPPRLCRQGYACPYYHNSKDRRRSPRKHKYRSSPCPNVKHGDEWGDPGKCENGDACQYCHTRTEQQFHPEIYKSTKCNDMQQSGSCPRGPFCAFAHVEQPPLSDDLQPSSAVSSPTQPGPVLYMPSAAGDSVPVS
Constant ends, left off below: GGGAGUUCUACAGUCCGACGAUC … CAACAGAGGAUUGAGCAUCA
Strand	bound/input enrichment
AUAUGAUCUUCUGCUCUUCCCAGGUCCCUUUCUCCCGCUCCCCCACUUGCCCUUUGCUGGCCGCCGCCAUGCUCCUGUGCUCCUCAUCCGUGGGGACAGGGCUUGGAGCAGUCACCCUUU	0.208 ratio
UCUUUUGAGGUGAUGGUGCUGGCCGAGCUGUUUCUGGAGAUGCUCCAGAGGGAUUUUGGCUACCGAGUUUAUAAGAUGCUACUGAGCCUUCCUGAAAAGGUCGUGUCCCCACCUGAACCU	0.302 ratio
CUUACCUCUUGCAAAAAAAAGAAAAAAGAAAAAAGUUCAUUUAUUCAUUCUGUUUCUAUACCGCAAAACUGAAUGUCAAAAGUACCUUCUGUCCACACACACAAAAUCUGCAUGUAUUGG	0.471 ratio
UCCAAAAAGAUCCAGCAGAUCCAUGUGGUUUCCCAGUUUAAGAUUCUGGUCAGCUUGUCCGAAAACAACAUUUAUGUCCAUGACUUACUGACAUUUCAACAAAUCACUACAGUCUCAAAG	0.0718 ratio
CGAUGUCCAGUUACUGUCUGUGGAGAUGUGCAUGGGCAAUUUCAUGAUCUCAUGGAACUGUUCCGAAUUGGUGGCAAAUCACCAGAUACAAAUUACUUGUUUAUGGGAGAUUAUGUUGAC	0.139 ratio
UUUUCUGUUAACAGUAUUUCUUGUGUGCGUGCUUGUUGGGCAGCCCGUUUGGCUGCGUUAUACCGCGAGUGAUGAGCUGAUCCUUUCCCCUAAGAGACAUGACUUCCCUCCGUCAGCAUU	0.472 ratio
AUAUCUUCCGAAGAGGGAGAGACGGAAGCUAAUAAUCACAAGAAGUUGUCAGAAUUUGGAAUCCGAAAUGGCAGCCGGCUUCAAGCAGAUGACUUCCUCCAGGACUAUACUUUAUUGAUC	0.137 ratio

Study 5 — technique: protein binding microarray; form: double-stranded DNA, one strand shown; medium: in vitro; tested at: not given; baseline: not given; direction: higher = stronger binding
Target: Histone acetyltransferase KAT6A, winged helix 1, GST fusion (KAT6A, Homo sapiens, UniProt Q92794, residues 1-85)
Notes: 8-mer, flanks averaged, mean of 2 arrays, mostly near background
Residues (chain): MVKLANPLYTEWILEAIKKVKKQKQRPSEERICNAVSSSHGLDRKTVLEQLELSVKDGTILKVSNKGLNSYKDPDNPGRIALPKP
Strand	E-score
CCCGCAGA	0.301
CAACTCCA	-0.0835
ACTACGAT	-0.0482
ATTCAGAA	-0.153
ACAGGGCC	0.0956
CAGATGGA	-0.0457
GACGTCCC	0.0296
CACGCCCC	0.0842
AGAACTTA	-0.128
AATGAGCC	-0.0406
ATTTGGCA	-0.275
GCATGCCA	-0.0895
AGTTAGCG	0.0268
ATCCCTTA	-0.135
CATTATCG	-0.0127
CCGGGTTC	0.333
CGCTATGA	0.168
GATCCAAC	-0.105
CCTGCCGA	-0.00969
CCCAGAAA	-0.254
CTTGTAGA	-0.0716

Study 6 — technique: universal PBM; form: double-stranded DNA, one strand shown; medium: in vitro; tested at: not given; direction: higher = stronger binding
Target: Sal-like protein 4, full length isoform B (SALL4, Homo sapiens, UniProt Q9UJQ4-2, residues 1-616)
Notes: 8-mer, flanks averaged, mean of replicates
Construct (chain): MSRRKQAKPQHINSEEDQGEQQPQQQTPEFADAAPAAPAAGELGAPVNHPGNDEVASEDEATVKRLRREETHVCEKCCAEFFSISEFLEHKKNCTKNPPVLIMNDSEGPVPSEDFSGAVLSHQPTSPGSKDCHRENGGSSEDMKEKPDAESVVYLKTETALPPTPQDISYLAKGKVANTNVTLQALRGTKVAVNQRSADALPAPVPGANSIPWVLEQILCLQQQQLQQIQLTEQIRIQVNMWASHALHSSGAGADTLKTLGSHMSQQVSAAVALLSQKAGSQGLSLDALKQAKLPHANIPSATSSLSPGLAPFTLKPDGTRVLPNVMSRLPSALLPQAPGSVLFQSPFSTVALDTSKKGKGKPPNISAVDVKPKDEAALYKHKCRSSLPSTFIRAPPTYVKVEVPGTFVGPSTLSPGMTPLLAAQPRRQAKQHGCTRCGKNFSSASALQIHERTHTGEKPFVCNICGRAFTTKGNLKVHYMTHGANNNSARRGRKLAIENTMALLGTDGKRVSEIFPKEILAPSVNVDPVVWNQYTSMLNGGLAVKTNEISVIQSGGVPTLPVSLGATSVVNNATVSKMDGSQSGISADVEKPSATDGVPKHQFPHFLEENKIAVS
Strand	E-score
GATCGCGA	-0.0101
GTTCTAAA	0.192
AATCCTGA	0.122
ATTTGTGA	0.21
CCAGCGTA	-0.114
AGGAACCG	-0.202
CCGACGCA	-0.192
AGCCGGTC	-0.299
AAATGAAG	0.183
CCGCAACA	0.00269
AGGATTTA	0.214
AGCCTAAG	-0.0998
GGCCCTCA	-0.227
ACGCTCAC	-0.119
GGACTACC	-0.211
ACGTGAGC	-0.19
AAGACGGA	-0.198
CCTTAAAC	0.0101
ATGCCGGC	-0.162
GTGAGTCA	-0.0864
CTCCTCCA	-0.102
GAAACCGA	-0.15

Study 7 — target: CCNB2, cyclin fold, Cln2 fusion (human); technique: yeast growth competition, sequencing; medium: yeast; notes: weak parent motif; baseline: not given; direction: higher = stronger binding
Parent: RBL1 docking peptide (human); GSAKRRLFGEDPP
Variant	normalised enrichment score
GSAKRRLFGEYPP [D11Y]	0.81
GSAKKRLFGEDPP [R5K]	-0.0285
GSAKRRLFGEDHP [P12H]	0.296
GEAKRRLFGEDPP [S2E]	-0.275
GSAKRRMFGEDPP [L7M]	0.258
GSAKRRLFGEDPC [P13C]	0.0116
GSAKRRLFGEHPP [D11H]	0.201
GSAKRRLFGRDPP [E10R]	0.694
GSAKARLFGEDPP [R5A]	-0.43
GSAKRRLFGEDPN [P13N]	0.0525
GSAKRRLCGEDPP [F8C]	0.0118
GSAKRRHFGEDPP [L7H]	-0.181
GSAKRRLFGETPP [D11T]	0.454
GSAKRVLFGEDPP [R6V]	-0.0554
GSAKRELFGEDPP [R6E]	-0.0863
GFAKRRLFGEDPP [S2F]	0.32
GSAKRRLDGEDPP [F8D]	0.00355
GSLKRRLFGEDPP [A3L]	-0.296
GSAQRRLFGEDPP [K4Q]	-0.31

For quick reference, copied from above (study 4):
Strand	bound/input enrichment
UCUUUUGAGGUGAUGGUGCUGGCCGAGCUGUUUCUGGAGAUGCUCCAGAGGGAUUUUGGCUACCGAGUUUAUAAGAUGCUACUGAGCCUUCCUGAAAAGGUCGUGUCCCCACCUGAACCU	0.302 ratio
AUAUCUUCCGAAGAGGGAGAGACGGAAGCUAAUAAUCACAAGAAGUUGUCAGAAUUUGGAAUCCGAAAUGGCAGCCGGCUUCAAGCAGAUGACUUCCUCCAGGACUAUACUUUAUUGAUC	0.137 ratio
CUUACCUCUUGCAAAAAAAAGAAAAAAGAAAAAAGUUCAUUUAUUCAUUCUGUUUCUAUACCGCAAAACUGAAUGUCAAAAGUACCUUCUGUCCACACACACAAAAUCUGCAUGUAUUGG	0.471 ratio
UCCAAAAAGAUCCAGCAGAUCCAUGUGGUUUCCCAGUUUAAGAUUCUGGUCAGCUUGUCCGAAAACAACAUUUAUGUCCAUGACUUACUGACAUUUCAACAAAUCACUACAGUCUCAAAG	0.0718 ratio
CGAUGUCCAGUUACUGUCUGUGGAGAUGUGCAUGGGCAAUUUCAUGAUCUCAUGGAACUGUUCCGAAUUGGUGGCAAAUCACCAGAUACAAAUUACUUGUUUAUGGGAGAUUAUGUUGAC	0.139 ratio
AUAUGAUCUUCUGCUCUUCCCAGGUCCCUUUCUCCCGCUCCCCCACUUGCCCUUUGCUGGCCGCCGCCAUGCUCCUGUGCUCCUCAUCCGUGGGGACAGGGCUUGGAGCAGUCACCCUUU	0.208 ratio
UUUUCUGUUAACAGUAUUUCUUGUGUGCGUGCUUGUUGGGCAGCCCGUUUGGCUGCGUUAUACCGCGAGUGAUGAGCUGAUCCUUUCCCCUAAGAGACAUGACUUCCCUCCGUCAGCAUU	0.472 ratio
